Measurements of several laboratories.
Parts stem from different laboratories: compare values within a part only.

Sample 1
Target: RNA binding protein fox-1 homolog 2, RRM domain, GST-SBP tag (RBFOX2, Homo sapiens, UniProt O43251-10, residues 100-194)
Technique: RNA Bind-n-Seq
Form: RNA
Medium: in vitro
Concentration: 365 nM
Notes: natural RNA segment, single round, ends assumed
Relative to: no-protein control
Reading: higher = stronger binding
Residues (chain): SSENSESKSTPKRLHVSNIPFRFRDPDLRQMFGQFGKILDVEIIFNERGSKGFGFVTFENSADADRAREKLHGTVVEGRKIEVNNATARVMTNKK
Under “RBNS enrichment (R)”, `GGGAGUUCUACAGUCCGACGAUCCUCCUAACUAGCAUGCAACCCUUGGCUUGUUUACUAACCCAAAAGGGCUAAGGCACAGUAUUUGAAACCAUUAAAUGUGUUCUUUGGAGAAGUCUGGUUAACAUCCAUCAUGGAAUUCUCGGGUGCCAA` is recorded as 8.05.
`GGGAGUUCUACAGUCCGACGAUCUCUGGGAUUUAGGGGGAGCCAACUCUUGGCCUUCCUUUGCUCCCUGACUGUCCUUACGUCCUCUCUGUUUAGAGUCUUAUUUAUUCUGCCCUUUUAACCAGUGCUGUGAUUGGAAUUCUCGGGUGCCAA` — result for “RBNS enrichment (R)”: 0.346.
For `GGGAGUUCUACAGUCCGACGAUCCCAGAAACUGUCGAUGACUCCGAAGAUUUACCAGAGUGUCAAUCUCUCACCGGGUGAUUCAUCAAAUUACCUACCAAGAGCUCCAAGAGGGGCUCCCUGCAAUGGACGAGUGGAAUUCUCGGGUGCCAA`, “RBNS enrichment (R)” read 0.372.
Under “RBNS enrichment (R)”, `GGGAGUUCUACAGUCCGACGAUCCACACACGGAGGCAUCCUACCCUUUUCUGGGGAAAGACACUGCCUGGGCUGACCCCGGUGGCGGCCCCAGCACCUCAGCCUGCACAGUGUCCCCCAGGUUCCGAAGAAGAUGGAAUUCUCGGGUGCCAA` is recorded as 0.313.
`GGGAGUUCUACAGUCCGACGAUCGGCUCAACAUUCCCUUCUAAAGCUGCAAGCCAAUCACUGUAACUGUAGCUGAGGAGGAGGGGAAGCCCCUUCAAAGUGUCGAUGUGGCCUUAUAAGUGUCAUACGUCACCUGGAAUUCUCGGGUGCCAA`: “RBNS enrichment (R)” 0.177.
Under “RBNS enrichment (R)”, `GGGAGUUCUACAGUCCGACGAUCUUUUUUUCUAAGGUUUAAGCACAUGCCUUUUGUAUUAUGCAGUAUAUAAUGGGUGUGCAGCCAUAGCGAAGCUUUGAGAAGCCCCAAGCCUCAACUGUAACCUGCAGCAAUGGAAUUCUCGGGUGCCAA` is recorded as 0.488.
Under “RBNS enrichment (R)”, `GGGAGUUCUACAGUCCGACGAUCUAUGGAUGCAAGCAGGAGAAGCUCAACACCCUGCCUCUUGCCAAGACAAGGAAGCCUCACCUGGCUUUGACCUGCCAUCCGUUGCUGAGGCCACUGGCUUCCAUCCUAAGUGGAAUUCUCGGGUGCCAA` is recorded as 0.284.
`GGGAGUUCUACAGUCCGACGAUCCUGCUUCCAUGUAGAGAAGUGGGACAGCAGGCCCUCCUUGGAGUUUCUGCACAGGUUUAGGUGAGUAGACCACAUGCCCUAUGAGGCAAGCACCGAGCAAACCCUAGGGUUGGAAUUCUCGGGUGCCAA` — result for “RBNS enrichment (R)”: 0.255.

Sample 2
Target: Replicase polyprotein 1ab, nsp13 helicase (rep, Severe acute respiratory syndrome coronavirus 2, UniProt P0DTD1)
Mode: inhibitor
Concentration: 20 µM
`Cc1ccccc1OCC(O)CO` (stereo not shown) gave an inhibition of 1.32%.
With `O=C(Nc1cc(C(F)(F)F)ccc1N1CCCCC1)c1ccncc1` the inhibition was 1.22%.
With `CN(C)CC/C=C1/c2ccccc2Sc2ccc(Cl)cc21` the inhibition was 6%.
For `O=C1NC(O)CCN1[C@@H]1O[C@H](CO)[C@@H](O)[C@H]1O` (stereo partly shown), the inhibition was 3.63%.
`Cc1ccc(C[N+](C)(C)C)o1` has an inhibition of 3.38%.
With `Cc1ncc(C[n+]2csc(CCOP(=O)(O)OP(=O)(O)O)c2C)c(N)n1` the inhibition was -2.99%.
For `Nc1ncc2c(n1)CC(c1ccco1)CC2=O` (stereo not shown), the inhibition was 12.6%.
For `OCCN1CCN(CCCN2c3ccccc3C=Cc3ccccc32)CC1`, the inhibition was 3.11%.
The inhibition of `CNc1cc2c(Nc3cccc(Br)c3)ncnc2cn1` is reported as -0.99%.
For `CCCC(CCC)C(N)=O`, the inhibition was 2.44%.
With `O=C(O)c1cn(-c2ccc(F)cc2)c2cc(N3CCNCC3)c(F)cc2c1=O` the inhibition was 2.71%.
The inhibition of `Cc1cc(O)c2c(c1)C(=O)c1cccc(O)c1C2=O` is reported as 22.1%.
`CC(=O)Oc1cccc(C(=O)O)c1OC(C)=O` has an inhibition of 1.21%.
The inhibition of `COc1ccc(-c2oc3c(CC=C(C)C)c(O)cc(O)c3c(=O)c2O)cc1` is reported as 8.13%.
With `CC(C)c1cc(C(=O)N2Cc3ccc(CN4CCN(C)CC4)cc3C2)c(O)cc1O` the inhibition was -0.73%.
`O=Cc1ccc(CO)o1` gave an inhibition of -2.16%.
With `Nc1ncnc2c1C(=O)N(c1ccc([C@H]3CC[C@H](CC(=O)O)CC3)cc1)CCO2` the inhibition was 7.12%.
With `C[C@H](N=C(NC#N)Nc1cccc2ncccc12)c1ccccc1` the inhibition was -1.51%.
For `CCC(C)(C)C(=O)C(=O)N1CCC[C@H]1C(=O)OCCCc1cccnc1`, the inhibition was 2.69%.
The inhibition of `COc1ccc(-c2ccc3cc(C(=O)O)ccc3c2)cc1[C@]12C[C@H]3C[C@H](C[C@H](C3)C1)C2` is reported as 5.9%.
`S=c1[nH]cnc2nc[nH]c12` has an inhibition of 5.28%.
`C#Cc1cccc2c1c(C(=O)c1ccc(Cn3c(C)nc4cnccc43)c(F)c1)cn2C(=O)N(C)C` has an inhibition of -1.01%.
`NC1=NCN([C@H]2C[C@H](O)[C@@H](CO)O2)C(=O)N1` has an inhibition of 5.15%.
For `CC#CCOC(=O)c1c(C)nc2sc3c(c2c1N)CCC(O)C3` (stereo not shown), the inhibition was 0.03%.
`CC(O)Cn1cnc2c1c(=O)n(C)c(=O)n2C` (stereo not shown) gave an inhibition of 3.81%.

Sample 3
Target: Interferon regulatory factor 7, full length, phosphomimetic (IRF7, Homo sapiens, UniProt Q92985, residues 1-503, S101K/S471D/S472D/S475D/S476D/S477D/S483D/S484D/S487D)
Chain of UniProt Q92985 (whole entry, unmodified, looked up): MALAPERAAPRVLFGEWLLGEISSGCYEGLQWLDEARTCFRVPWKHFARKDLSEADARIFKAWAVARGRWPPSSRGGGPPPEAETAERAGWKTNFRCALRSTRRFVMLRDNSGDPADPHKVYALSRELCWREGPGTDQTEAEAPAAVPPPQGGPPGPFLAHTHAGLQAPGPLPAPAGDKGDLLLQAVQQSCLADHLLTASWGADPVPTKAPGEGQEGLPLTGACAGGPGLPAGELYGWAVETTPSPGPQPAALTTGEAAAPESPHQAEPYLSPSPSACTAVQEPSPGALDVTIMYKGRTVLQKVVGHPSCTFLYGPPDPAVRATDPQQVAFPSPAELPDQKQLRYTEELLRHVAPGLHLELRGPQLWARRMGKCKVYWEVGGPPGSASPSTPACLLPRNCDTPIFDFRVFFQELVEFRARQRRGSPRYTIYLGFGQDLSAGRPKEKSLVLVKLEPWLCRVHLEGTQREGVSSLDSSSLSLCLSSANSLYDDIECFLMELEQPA
Technique: protein-binding microarray
Form: double-stranded DNA, one strand shown
Medium: in vitro
Concentration: 250 nM
Notes: 60-bp whole probe
Added: salmon DNA 0.4 mg/ml
Relative to: random background probes
Reading: higher = stronger binding
All sequences stand within: GCCTAGCAC … GTCTTGATTCGCTTGACGCTGCTG
The log fluorescence of `GACGAACTAGGGACTGGAGACGTGCTA` is reported as -0.372 z-score.
`TCCTCTTTTTTGTTCCACGCGTGCTAG` has a log fluorescence of 1.4 z-score.
The log fluorescence of `TTGGGTATCGGGACTGGGTTAGTGCTA` is reported as -0.0404 z-score.
For `TTACGTTTCGGGTATCGGTTAGTGCTA`, the log fluorescence was 3.83 z-score.
`GACAGTCTCGGACTGGGGACGTGCTAG` gave a log fluorescence of 0.0302 z-score.
The log fluorescence of `CGAGTTTCCATTTTCTGAATGTGCTAG` is reported as 8.88 z-score.
The log fluorescence of `GACGGTCTCGGTCTCGGAACGTGCTAG` is reported as 1.22 z-score.
The log fluorescence of `TTAGATTTCGACACTGGGTTAGTGCTA` is reported as 0.283 z-score.

Sample 4
Target: Replicase polyprotein 1ab, 3C-like proteinase (rep, Middle East respiratory syndrome-related coronavirus, UniProt K9N7C7)
Observed: enzyme activity
Concentration: 10 µM
`O=c1cc(-c2ccc(O)cc2)oc2cc(O)cc(O)c12` has an inhibition of 17%.
For `COc1cccc2c1C(=O)c1c(O)c3c(c(O)c1C2=O)C[C@@](O)(/C(CO)=N/NC(=O)CCCCCN1C(=O)C=CC1=O)C[C@@H]3O[C@H]1C[C@H](N)[C@H](O)[C@H](C)O1`, the inhibition was 1%.
With `CCN(CC)C(=S)SSC(=S)N(CC)CC` the inhibition was 12%.

Sample 5
Target: Histone acetyltransferase KAT6A, both winged helices, GST fusion (KAT6A, Homo sapiens, UniProt Q92794, residues 1-181)
Technique: protein binding microarray
Form: double-stranded DNA, one strand shown
Medium: in vitro
Concentration: not given
Notes: 8-mer, flanks averaged, mean of 2 arrays, mostly near background
Relative to: not given
Reading: higher = stronger binding
Construct (chain): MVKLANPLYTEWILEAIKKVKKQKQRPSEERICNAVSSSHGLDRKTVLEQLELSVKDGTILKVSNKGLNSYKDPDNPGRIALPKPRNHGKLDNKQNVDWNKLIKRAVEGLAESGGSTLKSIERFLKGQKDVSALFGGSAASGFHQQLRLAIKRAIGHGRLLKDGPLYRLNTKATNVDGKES
`CGAAGGTC` gave an E-score of 0.0443.
With `AGTCTAGA` the E-score was -0.181.
`CGCGCGAG` has an E-score of 0.35.
The E-score of `CTTTGCGA` is reported as 0.0182.
The E-score of `ATATTTCG` is reported as -0.0464.
`TGAACACA` gave an E-score of -0.0277.
`AACCAAAC` gave an E-score of -0.0233.
`AGGTCTTA` has an E-score of -0.0651.

Repeated from above (sample 2):
For `CCC(C)(C)C(=O)C(=O)N1CCC[C@H]1C(=O)OCCCc1cccnc1`, the inhibition was 2.69%.
The inhibition of `COc1ccc(-c2ccc3cc(C(=O)O)ccc3c2)cc1[C@]12C[C@H]3C[C@H](C[C@H](C3)C1)C2` is reported as 5.9%.
`S=c1[nH]cnc2nc[nH]c12` has an inhibition of 5.28%.
`C#Cc1cccc2c1c(C(=O)c1ccc(Cn3c(C)nc4cnccc43)c(F)c1)cn2C(=O)N(C)C` has an inhibition of -1.01%.
